Measured values pooled from the literature.
A part holds a random share of what one study measured.

Study 1
Target: Transcriptional repressor CTCF (CTCF, Homo sapiens, UniProt P49711, residues 1-727, full length assumed)
Sequence of UniProt P49711 (whole entry, looked up): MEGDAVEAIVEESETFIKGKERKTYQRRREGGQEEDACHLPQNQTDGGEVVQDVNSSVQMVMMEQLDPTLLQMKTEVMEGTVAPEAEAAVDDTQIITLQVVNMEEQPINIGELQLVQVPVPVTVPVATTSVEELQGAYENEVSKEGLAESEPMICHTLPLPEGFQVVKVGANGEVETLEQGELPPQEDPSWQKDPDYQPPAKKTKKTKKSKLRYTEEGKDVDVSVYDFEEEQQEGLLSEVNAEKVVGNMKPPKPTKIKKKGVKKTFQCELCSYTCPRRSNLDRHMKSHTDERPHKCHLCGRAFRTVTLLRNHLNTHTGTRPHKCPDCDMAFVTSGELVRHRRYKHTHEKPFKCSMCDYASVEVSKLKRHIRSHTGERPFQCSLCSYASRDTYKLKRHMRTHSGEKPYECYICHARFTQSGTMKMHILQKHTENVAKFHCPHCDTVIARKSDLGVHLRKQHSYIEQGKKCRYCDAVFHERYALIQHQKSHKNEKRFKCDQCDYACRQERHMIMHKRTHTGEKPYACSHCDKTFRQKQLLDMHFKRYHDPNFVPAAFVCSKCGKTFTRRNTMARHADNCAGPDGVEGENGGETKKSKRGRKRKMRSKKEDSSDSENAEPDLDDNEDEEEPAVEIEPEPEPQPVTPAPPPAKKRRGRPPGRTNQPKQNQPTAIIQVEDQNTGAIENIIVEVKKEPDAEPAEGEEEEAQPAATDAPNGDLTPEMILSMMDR
Technique: protein-binding microarray
Form: double-stranded DNA, one strand shown
Matrix: in vitro
Tested at: not given
Setting: k-mer, scored over probes, only values ≥0.25
Reading: higher = stronger binding
Endpoint: E-score
GAATTTAC: 0.259
CAGTAAAA: 0.29
TCAACAAA: 0.258
AATGTATA: 0.339
GATAATCA: 0.362
CATGCGCA: 0.386
ATTATCGC: 0.3
CATAAAGA: 0.283
ACTGGTAA: 0.252
AGGCGCAT: 0.285
ATCAAATA: 0.269
GTACATAA: 0.265
ACTATACT: 0.256
ATTATGCG: 0.403
ATTATCAC: 0.316
ATATGTTG: 0.262

Study 2
Target: Interferon regulatory factor 7, full length, phosphomimetic (IRF7, Homo sapiens, UniProt Q92985, residues 1-503, S101K/S471D/S472D/S475D/S476D/S477D/S483D/S484D/S487D)
Technique: protein-binding microarray
Form: double-stranded DNA, one strand shown
Matrix: in vitro
Tested at: 250 nM
Setting: 60-bp whole probe
Added: salmon DNA 0.4 mg/ml
Relative to: random background probes
Reading: higher = stronger binding
Endpoint: log fluorescence
All sequences stand within: GCCTAGCAC … GTCTTGATTCGCTTGACGCTGCTG
Construct (chain): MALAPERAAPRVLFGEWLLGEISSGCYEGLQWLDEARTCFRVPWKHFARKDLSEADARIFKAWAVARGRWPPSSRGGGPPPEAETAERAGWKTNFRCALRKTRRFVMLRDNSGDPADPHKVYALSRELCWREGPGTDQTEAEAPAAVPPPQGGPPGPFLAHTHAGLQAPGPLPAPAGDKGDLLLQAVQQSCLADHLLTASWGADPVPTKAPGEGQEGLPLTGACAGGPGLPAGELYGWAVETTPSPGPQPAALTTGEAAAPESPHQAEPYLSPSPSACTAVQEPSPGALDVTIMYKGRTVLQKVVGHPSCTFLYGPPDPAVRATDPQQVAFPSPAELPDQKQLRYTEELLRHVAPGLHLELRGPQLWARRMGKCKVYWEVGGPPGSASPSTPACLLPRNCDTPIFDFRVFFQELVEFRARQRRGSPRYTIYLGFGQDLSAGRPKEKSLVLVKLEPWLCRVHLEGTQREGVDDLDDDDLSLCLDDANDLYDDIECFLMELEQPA
GACGTTCTCCTACTGCTGACGTGCTAG: 0.206 z-score
TCACCTCTAGGTTTTCTACTGTGCTAG: -0.277 z-score
GACGCACTGGACTATCGGGACGTGCTA: -0.224 z-score
TCACATGTGCCTTTATAACTGTGCTAG: 0.178 z-score
TTAGTTTTCAGTTTCGATTAGTGCTAG: 10.5 z-score
GACGTTCTCCTTATCCTGACGTGCTAG: 1.1 z-score
GACGGTTTCTACTATCGGGACGTGCTA: 1.41 z-score
TTAGGTTTCCTTTTCGTTTAGTGCTAG: 7.15 z-score
AAACTCGTGTTTTTCTCCTAGTGCTAG: 0.491 z-score
TAAGGACTGGACTTTCGGTTAGTGCTA: 0.601 z-score
TAAGGTATCGACTTTCGGTTAGTGCTA: 3.21 z-score
TTAGCTCTCCTTTTCCTTTAGTGCTAG: 0.695 z-score
TTAAGAATGTTTTTCATTGTGTGCTAG: 0.0224 z-score
TTGGGTATCGACTTTCGGTTAGTGCTA: 2.43 z-score
TTAGGAATCGGGTATCGGTTAGTGCTA: 1.07 z-score
TTAGGATTCGGGACTGGGTTAGTGCTA: 0.449 z-score
TTAGAACCGGGGTTTCGATTAGTGCTA: 6.44 z-score
GACGGTCTCGTTCTCCTGACGTGCTAG: 2.25 z-score
TTAGGTATCGGTTTCGGTTAGTGCTAG: 10.7 z-score
TGGGTTTTCAGCTGTTTTTCTGTGCTA: 0.154 z-score
TTAGGCTTCGGGTATCGGTTAGTGCTA: 0.351 z-score
TCATTTTTCCCTATTATACTGTGCTAG: 2.61 z-score
TTAGGACTGCTTCTCCTTTAGTGCTAG: 0.656 z-score
TTAGAGATCGGGTTTCGATTAGTGCTA: 6.99 z-score
TTAGGACTGGACTCTCGGTTAGTGCTA: -0.0683 z-score

Study 3
Target: Sal-like protein 4, full length isoform B (SALL4, Homo sapiens, UniProt Q9UJQ4-2, residues 1-616)
Technique: universal PBM
Form: double-stranded DNA, one strand shown
Matrix: in vitro
Tested at: not given
Setting: 8-mer, flanks averaged, mean of replicates
Reading: higher = stronger binding
Endpoint: E-score
Residues (chain): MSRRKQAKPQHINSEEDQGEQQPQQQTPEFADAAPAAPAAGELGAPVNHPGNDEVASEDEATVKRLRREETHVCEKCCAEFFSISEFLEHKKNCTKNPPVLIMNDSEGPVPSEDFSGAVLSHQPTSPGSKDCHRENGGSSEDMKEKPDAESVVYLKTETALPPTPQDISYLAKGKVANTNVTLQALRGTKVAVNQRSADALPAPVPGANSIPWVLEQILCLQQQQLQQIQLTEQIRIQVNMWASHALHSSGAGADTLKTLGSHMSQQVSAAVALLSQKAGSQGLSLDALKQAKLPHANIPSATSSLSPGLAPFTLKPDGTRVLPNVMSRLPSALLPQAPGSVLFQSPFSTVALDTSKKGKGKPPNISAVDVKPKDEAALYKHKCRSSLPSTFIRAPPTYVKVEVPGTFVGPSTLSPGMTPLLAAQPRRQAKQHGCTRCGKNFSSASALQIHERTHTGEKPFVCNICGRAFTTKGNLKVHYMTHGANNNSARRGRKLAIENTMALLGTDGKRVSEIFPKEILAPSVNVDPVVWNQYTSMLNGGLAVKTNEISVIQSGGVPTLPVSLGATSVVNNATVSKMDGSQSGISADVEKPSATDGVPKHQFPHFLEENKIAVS
GTCTGACA: -0.0951
GAACGTCA: 0.0513
ATCTTTTC: 0.135
ACTGGAGA: -0.106
ATTAAATA: 0.426
GCACGTAA: 0.0354
CATAAGAC: 0.221
AATTGCTA: 0.239
AGCATTCA: 0.0443
ACCTCTAC: -0.0651
AATGTGAC: 0.0499
ATGCCTGG: -0.127
TAATCTCA: 0.17
CGGTCTAA: -0.0021
ACGACTAC: -0.127
CTCCTATC: -0.0282
GCTGATAC: -0.063
AACATCTA: 0.105
AGGCCACA: -0.256

Study 4
Target: RNA binding protein fox-1 homolog 2, RRM domain, GST-SBP tag (RBFOX2, Homo sapiens, UniProt O43251-10, residues 100-194)
Technique: RNA Bind-n-Seq
Form: RNA
Matrix: in vitro
Tested at: 365 nM
Setting: natural RNA segment, single round, ends assumed
Relative to: no-protein control
Reading: higher = stronger binding
Endpoint: RBNS enrichment (R)
All sequences stand within: GGGAGUUCUACAGUCCGACGAUC … UGGAAUUCUCGGGUGCCAA
Residues (chain): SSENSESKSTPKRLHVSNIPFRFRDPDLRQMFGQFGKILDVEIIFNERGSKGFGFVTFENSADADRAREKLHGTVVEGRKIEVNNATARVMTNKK
UUUCCUAUACUAUACAUAUAUAUGUGUUCUGGUCGGCAAAGCCUGCCGACCAGAGGAAGUCUCUCUGCAUGUUCUAGUGUUAGUAACUAAUUUUUAUAUAGCUAAUGUAG: 4.23
GUGGGAGAAGUGUGCACACCUUUGAGUCCCUUCCCUCAAGGUUAAAGCUCCUGUCAGACUCUCAGAAGGGUCUGUGGGUGUUGUAUAUUAGGCAAACAGGGGAAAGCUUA: 0.456
UAGGCACUGAAUUCGUCAACUCUUUUUUGUGAGCCUACUUGUGAAUAUUACCUCAGAUACCUGUUGUCACUCUUCACAGGUUAUUUAAGUUUUUGAAGCUGGGAGGAAAA: 0.347
AUUAUUAAAGCUGUGUUAUUUUCCACAGAAUAUAGAAUAUAUAUUUUUUUCGUGUGUGUUUUUGUUAACUACGCUACAGAUAUUGAAUGCACCUUGAGAUAAUUUAGUGU: 1.91
UGAUGCUGUGAAGCCUGCCCCUGUGUGUAUCUGUUCUCUCACCUCCCUAGCACUGUAAGCAGCGGUGCCUCUUGUAGCAUGUGUGUUUGUUUUUUAAUGUUUCAUGACUC: 4.52
GGGGGAUAACAGCACAUCCUAGAUCAUGUGUGAACUUUGGGGUUUUUAAUUGCCCUUGGUAUCCUGAUAUUCUCAUUUUCAAGGUGAGGUAAAGACAGGGUUUCCUUACU: 0.622
GUGAUUUGAAAAAUACUCAUUCUGAACAUAUCCAUGCGCAAUCAUGAUAACUGUUGUGAGUAGUGCUUUUCAUUCUUCUCACUUGCCUUUGUUACUUAAUGUGCUUUCAG: 0.285
UGCCGCGCAACACAUCUCUCUGAGGCUGGCAAGCCUCGCCCCUCGCAGUGACGUCCUCCCACGCCUGGCGGCCGUAGUGGCUGUGCUCCGGGCAGCAUCGGGCUUCAUAG: 0.31
AUCACCCUGAGCCCCAUUUGCUUCCCAGCCCUGGAGUUUUUACCCGGCUUUGCCUGCCACCUCUGCCCAGGACACUCUUCCCUCUCGGGAUGUGUGAUGAACUCCCAGGA: 0.732
UCAAAGUGAGGCAGUGUUAGGAAACCAUGGGCUGGGUGCAGUGCCUCUCGCCUGUAAUCGUAGCACUUUGGGAGGCCGAGGCGGGCACAUUGCUUGAGCUCAGGAGUUCA: 1.03
ACUCUGGGUUUCAGAGAGUAGUAUUGGUUUCAGUCUGGUCUCAUUUCCAUUGCCUUAACGCUGGGUGGUCAGGGCCCCAAGGAACUCUGGAUCUAAGCUCAGGAGUACAC: 0.255
AUUUUCUCAGUGUAUUUUUGUAAAAAAUAUAUAAAGGGGGUGUUAAUCGGUGUAAAUCGCUGUUUGGAUUUCCUGAUUUUAUAAUAGGGUGGCUGGUUAAUAUCUCACAC: 0.316

Study 5
Target: Fragile X messenger ribonucleoprotein 1, C-terminal low-complexity region (Fmr1, Mus musculus, UniProt P35922)
Technique: RNA Bind-n-Seq
Form: RNA
Matrix: in vitro
Tested at: 200 nM
Setting: whole 134-nt RNA, ends assumed
Added: 150 mM KCl
Relative to: input library
Reading: higher = stronger binding
Endpoint: log2 enrichment
All sequences stand within: GGGAGUUCUACAGUCCGACGAUC … UGGAAUUCUCGGGUGUCAAGG
CCUCAAGUCCUGUGCUACACAUCGUAUGUACCGAAUCGGUGGUGGGGUGGGGAAAGUAUUAUGUUACGCCGUUCGGAUCUGCACUUCCAG: 0.392
UUCCUCAAGUCCUGUGCUACACAUCGUAUGUACCGAAUCGGGUGGUGGUGGAAAGUAUUAUGUUACGCCGUUCGGAUCUGCACUUCCAGC: -0.11
UUAGAAGAACCCGAAGAACCUAAAGUGCUAACACCAGAAGAACAAUUAGCAGAUAAACUGCGGCUAAAGAAAUUACAGGAAGAGUCAGAC: 0.176
CUCAAGUCCUGUGCUACACAUCGUAUGUACCGAAUCGGGUUUGGUUUGGUUUGGAAAGUAUUAUGUUACGCCGUUCGGAUCUGCACUUCC: -0.266
CACAGACAACACGCACCCACACAGACACAGAGGGAAGGGGUUGGGAUGGGGACAGGGUGCACAGAAAGGCGGGGUAGGACCCCAGCCCCU: 1.15
UCUGAGCAAUUGAAUGCCCUAAACAAGGCUUACCAUGACCUUUGUGAUGGUUCUGCAAAUCAGCUUCAGCAGCUUCAGAGCCAGUUGGCU: -2.41
AAGUCCUGUGCUACACAUCGUAUGUACCGAAUCGGGUUUUGGGGUUUUGGUUUUGGGAAAGUAUUAUGUUACGCCGUUCGGAUCUGCACU: -0.191
AGUCCUGUGCUACACAUCGUAUGUACCGAAUCGGGGCCCCCGGCCCCCGGCCCCCGGGAAAGUAUUAUGUUACGCCGUUCGGAUCUGCAC: -0.924
UGGGAGGUGGAUUUUGGUUAUUUUUUUAGCUCAUUUCCAGGGGUGGGAAUUUUUUUUUAAUAUGUGUCAUGAAUAAAGUUGUUUUUGAAA: 0.264
CACAGACAACACGCACCCACACAGACACAGAGGUAAGGGGUUGGGAUGGGGACAGGGUGCACAGCAGGGCGGGGUAGGACCCCAGCCCCU: 1.33
AAGUCCUGUGCUACACAUCGUAUGUACCGAAUCGGCCCCGGGGCCCCGGGCCCCGGGAAAGUAUUAUGUUACGCCGUUCGGAUCUGCACU: -0.392
UGUGAACUUGUAUGUGAAGAAUCUGGACGACUCCAUUGAUGACGACAAACUGAGGAAAGAGUUCUCUCCCUAUGGAGUAAUUACCAGUGC: -0.00519
UUGUAUUAAGACAACGCUCCUCGACUUAGAUGCCUUGGCAAGACAUUUGGCUGACUGUAUUCGAAGGUAAAAUUUGAUGUGAAAUUGACA: -0.638
UCCUGUGCUACACAUCGUAUGUACCGAAUCGGGGUUUUUGGGGUUUGGGGAAAAAGGGGAAAGUAUUAUGUUACGCCGUUCGGAUCUGCA: 0.635

Repeated from above (study 1):
ATTATCAC: 0.316
TCAACAAA: 0.258
GTACATAA: 0.265
ACTATACT: 0.256
ATCAAATA: 0.269
ATTATGCG: 0.403
